Published values gathered from unrelated publications.
Every numbered part comes from another study and shows a few of its results, in no order. “And” joins repeats or separate records; there may be more than shown.
Sequence of UniProt P42336 (whole entry, unmodified, looked up): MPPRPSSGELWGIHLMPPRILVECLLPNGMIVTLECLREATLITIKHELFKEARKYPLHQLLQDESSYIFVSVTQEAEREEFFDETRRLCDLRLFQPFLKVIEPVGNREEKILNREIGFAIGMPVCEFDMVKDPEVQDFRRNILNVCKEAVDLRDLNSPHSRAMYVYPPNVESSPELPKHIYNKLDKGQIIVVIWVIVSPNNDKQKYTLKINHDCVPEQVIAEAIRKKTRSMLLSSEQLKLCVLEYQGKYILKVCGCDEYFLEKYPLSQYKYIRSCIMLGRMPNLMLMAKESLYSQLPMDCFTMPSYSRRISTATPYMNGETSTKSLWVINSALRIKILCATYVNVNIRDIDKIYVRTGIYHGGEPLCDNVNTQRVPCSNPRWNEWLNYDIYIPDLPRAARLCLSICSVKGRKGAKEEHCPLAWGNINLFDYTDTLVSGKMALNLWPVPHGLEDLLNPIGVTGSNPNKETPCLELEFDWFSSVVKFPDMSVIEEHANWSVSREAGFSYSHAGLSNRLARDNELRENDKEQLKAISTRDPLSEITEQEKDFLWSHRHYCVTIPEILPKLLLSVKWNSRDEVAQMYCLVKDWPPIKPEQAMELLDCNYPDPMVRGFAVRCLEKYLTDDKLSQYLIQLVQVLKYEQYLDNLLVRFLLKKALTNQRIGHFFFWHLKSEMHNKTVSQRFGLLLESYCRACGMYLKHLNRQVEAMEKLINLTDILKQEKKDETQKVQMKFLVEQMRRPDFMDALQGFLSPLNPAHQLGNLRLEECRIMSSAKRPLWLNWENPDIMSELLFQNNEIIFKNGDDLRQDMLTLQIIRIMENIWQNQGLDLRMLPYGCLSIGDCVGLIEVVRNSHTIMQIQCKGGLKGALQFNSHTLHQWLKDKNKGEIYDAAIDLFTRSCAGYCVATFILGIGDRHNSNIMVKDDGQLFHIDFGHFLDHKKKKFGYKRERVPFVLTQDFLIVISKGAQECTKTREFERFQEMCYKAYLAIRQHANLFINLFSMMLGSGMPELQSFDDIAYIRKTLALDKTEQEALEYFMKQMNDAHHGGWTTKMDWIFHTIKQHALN
Sequence of UniProt Q96NX5 (whole entry, looked up): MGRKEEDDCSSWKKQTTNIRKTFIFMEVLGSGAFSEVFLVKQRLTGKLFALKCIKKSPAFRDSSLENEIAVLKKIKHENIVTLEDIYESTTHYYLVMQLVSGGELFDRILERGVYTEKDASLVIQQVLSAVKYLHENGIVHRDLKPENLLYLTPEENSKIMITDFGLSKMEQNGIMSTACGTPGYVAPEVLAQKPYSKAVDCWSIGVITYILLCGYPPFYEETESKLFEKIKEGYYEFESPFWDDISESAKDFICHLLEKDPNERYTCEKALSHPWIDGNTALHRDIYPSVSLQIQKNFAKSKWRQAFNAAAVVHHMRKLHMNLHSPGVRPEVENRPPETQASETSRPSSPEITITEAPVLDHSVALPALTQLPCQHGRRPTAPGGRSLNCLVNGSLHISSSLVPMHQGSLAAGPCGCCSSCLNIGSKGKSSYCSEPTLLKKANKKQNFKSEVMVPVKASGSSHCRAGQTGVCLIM
Sequence of UniProt P49841 (whole entry, looked up): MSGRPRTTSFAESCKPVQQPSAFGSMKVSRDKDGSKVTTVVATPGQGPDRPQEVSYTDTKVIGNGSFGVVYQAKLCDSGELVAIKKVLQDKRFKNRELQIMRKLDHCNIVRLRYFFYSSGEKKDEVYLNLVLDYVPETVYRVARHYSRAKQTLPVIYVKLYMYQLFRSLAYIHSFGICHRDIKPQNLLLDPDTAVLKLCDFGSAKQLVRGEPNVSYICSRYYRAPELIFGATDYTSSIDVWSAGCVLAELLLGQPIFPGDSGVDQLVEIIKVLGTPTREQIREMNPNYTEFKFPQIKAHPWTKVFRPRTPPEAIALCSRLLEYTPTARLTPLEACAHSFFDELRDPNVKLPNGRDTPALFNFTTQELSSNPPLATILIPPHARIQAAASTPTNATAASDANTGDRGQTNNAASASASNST
Sequence of UniProt P10721 (whole entry, looked up): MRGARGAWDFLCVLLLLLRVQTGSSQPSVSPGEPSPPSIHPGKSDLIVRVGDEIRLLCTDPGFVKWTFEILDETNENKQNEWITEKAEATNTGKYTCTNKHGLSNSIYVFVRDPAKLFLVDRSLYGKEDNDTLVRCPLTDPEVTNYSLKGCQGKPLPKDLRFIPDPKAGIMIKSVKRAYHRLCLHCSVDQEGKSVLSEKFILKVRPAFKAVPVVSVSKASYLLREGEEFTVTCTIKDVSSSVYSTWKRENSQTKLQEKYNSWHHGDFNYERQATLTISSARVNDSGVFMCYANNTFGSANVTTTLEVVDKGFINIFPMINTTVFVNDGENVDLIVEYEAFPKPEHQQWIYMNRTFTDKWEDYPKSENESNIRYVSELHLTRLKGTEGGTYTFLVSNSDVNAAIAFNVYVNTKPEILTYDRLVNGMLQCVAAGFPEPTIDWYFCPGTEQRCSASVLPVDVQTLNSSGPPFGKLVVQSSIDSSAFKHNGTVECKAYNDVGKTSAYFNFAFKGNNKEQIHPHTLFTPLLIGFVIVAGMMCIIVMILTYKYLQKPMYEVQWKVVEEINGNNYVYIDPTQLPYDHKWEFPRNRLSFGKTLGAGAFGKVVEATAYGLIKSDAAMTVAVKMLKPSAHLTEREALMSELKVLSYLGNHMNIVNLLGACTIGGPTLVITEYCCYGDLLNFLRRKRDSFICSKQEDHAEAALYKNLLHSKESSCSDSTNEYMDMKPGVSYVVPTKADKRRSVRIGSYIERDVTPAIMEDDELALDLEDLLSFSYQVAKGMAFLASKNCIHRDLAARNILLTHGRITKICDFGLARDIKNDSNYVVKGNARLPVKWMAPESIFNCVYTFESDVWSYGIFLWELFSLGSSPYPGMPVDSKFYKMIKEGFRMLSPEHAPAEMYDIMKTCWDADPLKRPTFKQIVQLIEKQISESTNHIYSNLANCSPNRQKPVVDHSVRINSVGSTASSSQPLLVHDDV
Sequence of UniProt P49759 (whole entry, looked up): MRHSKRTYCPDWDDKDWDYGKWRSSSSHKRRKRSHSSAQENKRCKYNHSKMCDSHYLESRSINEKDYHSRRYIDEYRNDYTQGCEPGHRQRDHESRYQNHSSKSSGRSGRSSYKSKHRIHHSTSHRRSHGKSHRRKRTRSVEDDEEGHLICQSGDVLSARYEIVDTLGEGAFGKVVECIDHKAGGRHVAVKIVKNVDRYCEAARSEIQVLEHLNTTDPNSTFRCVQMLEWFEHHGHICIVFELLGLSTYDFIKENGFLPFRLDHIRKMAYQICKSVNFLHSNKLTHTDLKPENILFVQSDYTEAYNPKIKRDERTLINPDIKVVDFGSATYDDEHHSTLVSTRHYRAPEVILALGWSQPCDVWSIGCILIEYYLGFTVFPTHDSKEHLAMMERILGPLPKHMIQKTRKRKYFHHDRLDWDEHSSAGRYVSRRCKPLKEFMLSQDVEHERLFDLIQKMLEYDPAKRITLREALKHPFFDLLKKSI

Set 1 — effect on: thermal unfolding; technique: differential scanning fluorimetry; tested at: 5.5 µM; reading: higher = more unfolded
SMILES: C[C@@H]1CN(c2ccc(-c3cc(C(=O)NCCOCCOCCOCCOCCOCCOCCNC(=O)/C=C/c4[nH]cc(C(=O)N[C@@H](CC(N)=O)c5ccc(F)c(Cl)c5)c4-c4ccc(Cl)cc4F)ccc3F)cc2NC(=O)c2ccc(F)cc2C(F)(F)F)C[C@H](C)N1C
DCAF1: DDB1- and CUL4-associated factor 1 (DCAF1, Homo sapiens, UniProt Q9Y4B6)
Sequence of UniProt Q9Y4B6 (whole entry, looked up): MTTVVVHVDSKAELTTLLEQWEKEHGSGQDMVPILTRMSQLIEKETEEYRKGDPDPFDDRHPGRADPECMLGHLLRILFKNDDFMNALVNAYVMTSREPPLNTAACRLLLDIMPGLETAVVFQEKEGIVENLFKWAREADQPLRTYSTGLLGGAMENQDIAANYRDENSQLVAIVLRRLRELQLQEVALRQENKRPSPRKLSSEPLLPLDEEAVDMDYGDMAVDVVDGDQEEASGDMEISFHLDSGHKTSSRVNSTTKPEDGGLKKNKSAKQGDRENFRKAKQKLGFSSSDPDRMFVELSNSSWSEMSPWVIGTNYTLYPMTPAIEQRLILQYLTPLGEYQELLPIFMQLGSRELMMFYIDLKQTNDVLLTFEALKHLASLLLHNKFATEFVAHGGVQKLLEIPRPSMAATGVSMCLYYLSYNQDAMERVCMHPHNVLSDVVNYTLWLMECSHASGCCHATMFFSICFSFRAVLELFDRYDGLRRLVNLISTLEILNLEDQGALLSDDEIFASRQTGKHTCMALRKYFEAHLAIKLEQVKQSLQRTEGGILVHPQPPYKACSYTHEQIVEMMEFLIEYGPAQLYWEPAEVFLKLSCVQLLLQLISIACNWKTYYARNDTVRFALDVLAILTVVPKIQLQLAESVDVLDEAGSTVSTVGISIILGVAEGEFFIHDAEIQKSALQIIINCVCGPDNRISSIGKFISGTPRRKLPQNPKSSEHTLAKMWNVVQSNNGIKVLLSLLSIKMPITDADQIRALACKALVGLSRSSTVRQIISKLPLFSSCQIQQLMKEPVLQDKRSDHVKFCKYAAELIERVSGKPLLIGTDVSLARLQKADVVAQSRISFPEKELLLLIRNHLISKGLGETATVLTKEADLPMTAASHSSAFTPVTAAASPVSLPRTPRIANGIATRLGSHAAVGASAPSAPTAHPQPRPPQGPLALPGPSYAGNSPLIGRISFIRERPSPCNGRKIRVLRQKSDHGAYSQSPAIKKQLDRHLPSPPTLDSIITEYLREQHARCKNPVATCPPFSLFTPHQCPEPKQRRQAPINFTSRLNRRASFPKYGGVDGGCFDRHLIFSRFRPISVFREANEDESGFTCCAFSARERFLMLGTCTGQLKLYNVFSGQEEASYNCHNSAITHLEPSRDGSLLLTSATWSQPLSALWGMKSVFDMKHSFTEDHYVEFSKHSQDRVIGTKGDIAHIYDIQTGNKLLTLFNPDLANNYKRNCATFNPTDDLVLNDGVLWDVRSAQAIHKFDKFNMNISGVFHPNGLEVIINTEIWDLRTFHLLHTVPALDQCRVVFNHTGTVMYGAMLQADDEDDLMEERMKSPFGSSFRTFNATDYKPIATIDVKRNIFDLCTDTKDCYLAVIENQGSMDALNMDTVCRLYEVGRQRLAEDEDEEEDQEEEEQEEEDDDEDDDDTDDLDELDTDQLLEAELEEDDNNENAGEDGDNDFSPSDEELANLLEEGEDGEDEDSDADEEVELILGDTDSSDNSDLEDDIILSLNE
WDR5: WD repeat-containing protein 5 (WDR5, Homo sapiens, UniProt P61964)
The “SYPRO Orange fluorescence” was 29400 a.u. (DCAF1; 94.01 °C).
For WDR5; 67.21 °C: “SYPRO Orange fluorescence” read 19700 a.u.
It gave 49900 a.u. for “SYPRO Orange fluorescence” (DCAF1; 68.41 °C).
For WDR5; 48 °C: “SYPRO Orange fluorescence” read 15500 a.u.
DCAF1; 86.41 °C — “SYPRO Orange fluorescence”: 34600 a.u.
For WDR5; 88.41 °C: “SYPRO Orange fluorescence” read 57200 a.u.
The “SYPRO Orange fluorescence” was 10000 a.u. (DCAF1; 35.4 °C).
It gave 7510 a.u. for “SYPRO Orange fluorescence” (DCAF1; 26.8 °C).
It gave 16600 a.u. for “SYPRO Orange fluorescence” (DCAF1; 48 °C).
It gave 59000 a.u. for “SYPRO Orange fluorescence” (WDR5; 87.21 °C).
The “SYPRO Orange fluorescence” was 45000 a.u. (DCAF1; 73.81 °C).

Set 2 — tested at: 1 µM
SMILES: CC[C@@]1(c2ccccc2)C2=C(CC(C)(C)CC2=O)Nc2n[nH]cc21
The remaining binding was 100% (FLT3 ITD/D835V, human; KINOMEscan).
The remaining binding was 100% (MAP3K20 (Homo sapiens, UniProt Q9NYL2); binding, competition with immobilised ligand).
It gave 100% for remaining binding (TRPM6 (Homo sapiens, UniProt Q9BX84); binding, competition with immobilised ligand).
For KIT (Homo sapiens, UniProt P10721); kinase binding, KINOMEscan; baseline: DMSO control: remaining binding read 100%.
The remaining binding was 54% (GSK3B (Homo sapiens, UniProt P49841); kinase binding, KINOMEscan; baseline: DMSO control).
TNK1 (Homo sapiens, UniProt Q13470); kinase binding, KINOMEscan; baseline: DMSO control — remaining binding: 100%.
It gave 59% for remaining binding (PIK3CA (Homo sapiens, UniProt P42336, I800L); kinase binding, KINOMEscan; baseline: DMSO control).
It gave 93% for remaining binding (CAMK1G (Homo sapiens, UniProt Q96NX5); binding, competition with immobilised ligand).
For LYN (Homo sapiens, UniProt P07948); binding, competition with immobilised ligand: remaining binding read 100%.
It gave 100% for remaining binding (MAPK9 (Homo sapiens, UniProt P45984); binding, competition with immobilised ligand).
The remaining binding was 100% (CLK1 (Homo sapiens, UniProt P49759); kinase binding, KINOMEscan; baseline: DMSO control).
It gave 100% for remaining binding (PKN1 (Homo sapiens, UniProt Q16512); binding, competition with immobilised ligand).
The remaining binding was 70% (PIK3CA (Homo sapiens, UniProt P42336, E542K); binding, competition with immobilised ligand).
For WNK1 (Homo sapiens, UniProt Q9H4A3); kinase binding, KINOMEscan; baseline: DMSO control: remaining binding read 100%.

Set 3 — cell line: NCI-H292; technique: CellTiter-Glo; time: 72 h; reading: higher = more viable cells
Structure (SMILES): CCOC(=O)/C=C/CNCCCCN1c2cc(Cl)ccc2CCc2cnn(C)c21.O=C(O)/C=C\C(=O)O
5 µM — luminescence: 813000 a.u. and 788000 a.u. and 807000 a.u.
The luminescence was 4.19e+06 a.u. and 3.96e+06 a.u. and 4.14e+06 a.u. (0.005 µM).
For 0.05 µM: luminescence read 4.13e+06 a.u. and 4.11e+06 a.u. and 4.08e+06 a.u.
The luminescence was 3.89e+06 a.u. and 3.83e+06 a.u. and 3.92e+06 a.u. (0.5 µM).

Mixed results
Under “complex I activity”, `Cc1nc(C)c(C=[N+]([O-])C(C)(C)C)nc1C` is recorded as 59.8% and 73.1% and 89.2% (mitochondrial complex I, rat; cerebellar granule neurons, rat; 300 µM, together with: MPP+; baseline: untreated control).
`Cc1ncsc1-c1ccc(C2(NC(=O)C3CC(O)CN3C(=O)C(NC(=O)c3ccc(COc4c(-c5c(C)c(F)cc6[nH]ncc56)c(C5CC5)cc5c(N6CC7CC6CN7)nc(OC6CCOCC6)nc45)cc3)C(C)(C)C)CC2)cc1` (stereo not shown) gave a koff of 0.045 s⁻¹ (von Hippel-Lindau disease tumor suppressor, with Elongin B/C (VHL, Homo sapiens, UniProt P40337); SPR, single-cycle; immobilized VCB complex; binary, geometric mean).
